Experimental data gathered from unrelated publications.
Each numbered part is a random draw from the data of one study; scales do not carry over between parts.

Series 1
Target: Histone acetyltransferase KAT6A, winged helix 2, GST fusion (KAT6A, Homo sapiens, UniProt Q92794, residues 85-181)
Technique: protein binding microarray
Molecule type: double-stranded DNA, one strand shown
Matrix: in vitro
Tested at: not given
Notes: 8-mer, flanks averaged, mean of 2 arrays, mostly near background
Reference: not given
Reading: higher = stronger binding
Target sequence (chain): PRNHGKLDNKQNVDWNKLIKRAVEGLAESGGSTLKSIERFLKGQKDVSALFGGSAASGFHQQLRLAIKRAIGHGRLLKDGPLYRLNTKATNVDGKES
For `ACGTCCGC`, the E-score was 0.00176.
With `GACGGTAC` the E-score was 0.0334.
`ACCGCTCG` gave an E-score of -0.125.
For `AAGTATGT`, the E-score was -0.245.
The E-score of `GTTCTGTA` is reported as -0.0823.
For `CATCGACG`, the E-score was 0.0342.
With `CAAAAGCG` the E-score was 0.111.
`GTTACATA` gave an E-score of -0.0845.

Series 2
Target: RNA binding protein fox-1 homolog 2, RRM domain, GST-SBP tag (RBFOX2, Homo sapiens, UniProt O43251-10, residues 100-194)
Technique: RNA Bind-n-Seq
Molecule type: RNA
Matrix: in vitro
Tested at: 365 nM
Notes: natural RNA segment, single round, ends assumed
Reference: no-protein control
Reading: higher = stronger binding
Shared flanks, not repeated: GGGAGUUCUACAGUCCGACGAUC … UGGAAUUCUCGGGUGCCAA
Target sequence (chain): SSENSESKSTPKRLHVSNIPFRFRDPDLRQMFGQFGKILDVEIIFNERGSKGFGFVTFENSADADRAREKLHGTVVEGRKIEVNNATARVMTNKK
`CUCUUCCAUGGUGCCGGCCAGAUUUGGGGACGGAGCACCAUUGUCCCUGUGGGGCUCAAUGUGGUGUCGCCUCUCUGGGCUGAGUGACUUGAUUUGACCAGCAUGCACUC`: “RBNS enrichment (R)” 2.59.
Under “RBNS enrichment (R)”, `UUUUAGCAAGCAUUAAAGCAAAUGUAUGGCUGCCUUUUGAAAUAUUUGAUGUGUUGCCUGGCAGGAUACUGCAAAGAACAUGGUUUAUUUUAAAAUUUAUAAACAAGUCA` is recorded as 1.02.
Under “RBNS enrichment (R)”, `AAGCCUCUUGGUGCACAAUAAACUAUUGCUGAAUCUUUGAACAGCUGGAAAGUAGUCUUGAGAGGCAGAAGCCGAAGGUUCGAGAGCCAGUGUUUAAUGUGCAGGAUCUA` is recorded as 0.334.
`UCUGAAAGACCCACAGCGAUCUGCCUCCUCAGCAUCCAGCGUGCUGGCUCCAGAGCUGCUGUUCCCAUCCACGCCAGUGGCCUCGGUCCCUUCUGUGCCAGGCAUUCUGG` — result for “RBNS enrichment (R)”: 0.273.
`GCAGGGUUCCUGUGGCCCAGGAUGGAGGCCACCGCUGCCCUGCCAUCCCGUCUGCCUGCCAUGGGACGGCUCCUCUGAGUGUUCCCUGGCCCCACGUGUGUGGUGUUUGU`: “RBNS enrichment (R)” 0.328.
`GCCGUGGAAAACCUUUUCAGAAACUACAUUCAUUGUUCUUUAAGCAGACCAAAAGUCACAACAGUGGCAGGCAGGCUGCAUGCUUUUUGUAUCGCUCACGAUGCACUGUG`: “RBNS enrichment (R)” 0.948.
`GCUUCUGAACACUGCUUUCCACACAAGCACGGGCAAGUCCCCUUUACCCUUGGAUCAGCCAAGCCAGACUUGGAGCUUUGACAAGGAACGUUCCCGGGAAACGACCAAAC` — result for “RBNS enrichment (R)”: 0.249.
`CACCUCUCGCGGCAGCUGUCAUUUCCAUGUGCACUGGGACGGGAAGUCAAACGAGGAAUUUAAAAAAGCAAAAGUUGACCGAAGGUGCAUUUUUGUUUAGACUCCCUGAG`: “RBNS enrichment (R)” 0.306.

Series 3
Target: Ras GTPase-activating protein-binding protein 1, full length (G3BP1, Homo sapiens, UniProt Q13283)
UniProt Q13283, sequence (whole entry, looked up): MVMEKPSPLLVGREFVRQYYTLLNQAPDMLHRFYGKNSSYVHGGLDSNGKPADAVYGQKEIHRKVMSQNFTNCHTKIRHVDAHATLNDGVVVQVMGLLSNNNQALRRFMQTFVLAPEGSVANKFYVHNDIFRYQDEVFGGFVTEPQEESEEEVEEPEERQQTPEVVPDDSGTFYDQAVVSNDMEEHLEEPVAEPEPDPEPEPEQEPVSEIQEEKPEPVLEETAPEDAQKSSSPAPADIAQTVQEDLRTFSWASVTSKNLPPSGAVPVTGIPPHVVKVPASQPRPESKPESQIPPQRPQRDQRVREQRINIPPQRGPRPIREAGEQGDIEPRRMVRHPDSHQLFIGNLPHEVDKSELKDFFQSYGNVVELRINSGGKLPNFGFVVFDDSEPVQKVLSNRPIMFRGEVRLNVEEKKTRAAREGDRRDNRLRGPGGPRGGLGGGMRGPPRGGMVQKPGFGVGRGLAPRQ
Technique: RNA Bind-n-Seq
Molecule type: RNA
Matrix: in vitro
Tested at: 200 nM
Notes: whole 134-nt RNA, ends assumed
Added: 150 mM KCl
Reference: input library
Reading: higher = stronger binding
Shared flanks, not repeated: GGGAGUUCUACAGUCCGACGAUC … UGGAAUUCUCGGGUGUCAAGG
`ACCAUGCAGGUGGGCAUCUUUGGGAAGUGGGGCAAGGGGGGGAUAGGAAGGGGGGUAACACUUUGGGAACAGGUGGUCCCAGGUCGUUUC` has a log2 enrichment of 1.01.
With `UGUGGAUGCCCUGCUGAAGAAGUCUGAGGCCCAGCAUGAACAGCCGGAAGAUGGAUGCCCCUUUGGUGCCCUGACGCAGCGCCUCCUGCA` the log2 enrichment was -0.0567.
`UCCUGUGCUACACAUCGUAUGUACCGAAUCGGGGAAAAAGGAAAAAGGGGAAAAAGGGGAAAGUAUUAUGUUACGCCGUUCGGAUCUGCA` has a log2 enrichment of 0.019.
`CUCAAGUCCUGUGCUACACAUCGUAUGUACCGAAUCGGGGCGGGGCGGCGGGGAAAGUAUUAUGUUACGCCGUUCGGAUCUGCACUUCCA` gave a log2 enrichment of 0.918.
`UCCUGUGCUACACAUCGUAUGUACCGAAUCGGGUUUUUUGGUUUUUUGGGUUUUUUGGGGAAAGUAUUAUGUUACGCCGUUCGGAUCUGC` gave a log2 enrichment of -0.571.
For `CAAGUCCUGUGCUACACAUCGUAUGUACCGAAUCGGGGAAAGGGAAAGGAAAGGGGAAAGUAUUAUGUUACGCCGUUCGGAUCUGCACUU`, the log2 enrichment was 0.371.
The log2 enrichment of `CACAGACAACACGCACCCACACAGACACAGAGGGAAGGGGUUGGGAUGAAAACAGGGUGCACAGCAGGGCGGGGUAGGACCCCAGCCCCU` is reported as 1.06.
For `UGGCGCCGUUCGACACCAGGCGGAUCCGCUCUGCAGCACGAACCCAUCUCCAGCCGCAGCCGCAGCCGCCGCCCGGGCCGAGGAGCAGCC`, the log2 enrichment was -0.183.

Mixed results
`IFIRTIYYH`: binding “inactive” (HLA class I histocompatibility antigen, A alpha chain, allele A*80:01 (Homo sapiens, UniProt P04439); peptide-MHC binding; peptide; concentration not given).

Excerpt of the above (series 3):
For `CAAGUCCUGUGCUACACAUCGUAUGUACCGAAUCGGGGAAAGGGAAAGGAAAGGGGAAAGUAUUAUGUUACGCCGUUCGGAUCUGCACUU`, the log2 enrichment was 0.371.
`ACCAUGCAGGUGGGCAUCUUUGGGAAGUGGGGCAAGGGGGGGAUAGGAAGGGGGGUAACACUUUGGGAACAGGUGGUCCCAGGUCGUUUC` has a log2 enrichment of 1.01.
With `UGUGGAUGCCCUGCUGAAGAAGUCUGAGGCCCAGCAUGAACAGCCGGAAGAUGGAUGCCCCUUUGGUGCCCUGACGCAGCGCCUCCUGCA` the log2 enrichment was -0.0567.
